Measured values of several laboratories.
Lines come from different studies, so protocols differ. ± gives the spread as reported.

SMILES	test	test system	conditions	tissue uptake
CC(C)C[C@@H](NC(=O)[C@@H](CCCNC(=N)N)NC(=O)[C@@H](Cc1c[nH]cn1)NC(=O)[C@@H](Cc1c[nH]c2ccccc12)NC(=O)[C@@H](Cc1c[nH]cn1)NC(=O)[C@@H](Cc1ccccc1)NC(=O)[C@H](NC(=O)[C@@H](Cc1ccc(O)cc1)NC(=O)CNC(=O)CNC(=O)CCOCCOCCOCCNC(=O)CN1CCN(CC(=O)O)CCN(CC(=O)O)CC1)[C@H](C)O)C(=O)N[C@H](CC(N)=O)C(=O)N1CCC[C@@H]1C(=O)O [gallium-68 labelled]	gamma counting	C57BL/6 mice, male, muscle	intravenous, 1.85 MBq, 120 min	0.52 ± 0.09 %ID/g
CC[C@H](C)[C@H](NC(=O)[C@H](CCCNC(=N)N)NC(=O)[C@H](CCCCN)NC(=O)[C@H](Cc1ccc(O)cc1)NC(=O)[C@H](CC(=O)O)NC(=O)[C@H](C)NC(=O)CNC(=O)CCOCCOCCOCCNC(=O)CN1CCN(CC(=O)O)CCN(CC(=O)O)CCN(CC(=O)O)CC1)C(=O)N[C@H](C(=O)N[C@@H](CC(C)C)C(=O)N[C@@H](CCCCN)C(=O)N[C@H](C(=O)N[C@@H](CC(N)=O)C(N)=O)C(C)C)[C@@H](C)O [copper-64 labelled]	ex vivo gamma counting	C57BL/6J male mice, B16-F10 tumour, liver	intravenous, 1.85 MBq, 5 min	2.47 ± 0.14 %ID/g
C[C@H](O)[C@@H](NC(=O)[C@H]1CCCN1C(=O)[C@@H](CCCCN)NC(=O)[C@@H](CO)NC(=O)[C@@H](Cc1ccc(O)cc1)NC(=O)[C@@H](CC(N)=O)NC(=O)CCOCCOCCOCCNC(=O)CN1CCN(CC(=O)O)CCN(CC(=O)O)CCN(CC(=O)O)CC1)C(=O)N[C@H](CC(=O)O)C(=O)N[C@H](CCCNC(=N)N)C(=O)N[C@H](CCC(N)=O)C(=O)N[C@H](Cc1ccc(O)cc1)C(=O)N[C@H](Cc1c[nH]cn1)C(=O)N[C@H](Cc1ccccc1)C(N)=O [gallium-68 labelled]	–	BALB/c nude mice U-87 MG tumour, muscle	intravenous, 1.85 MBq, 0.5 h, radiolabelled	0.71 ± 0.37 %ID/g
CC[C@H](C)[C@H](NC(=O)[C@H](CCCCN)NC(=O)CNC(=O)[C@H](CC(C)C)NC(=O)[C@H](Cc1ccccc1)NC(=O)[C@H](CCCCN)NC(=O)[C@H](CO)NC(=O)[C@H](Cc1ccccc1)NC(=O)[C@H](Cc1c[nH]c2ccccc12)NC(=O)[C@H](CCC(N)=O)NC(=O)[C@@H](NC(=O)[C@H](Cc1ccccc1)NC(=O)CCCCCNC(=O)CN1CCN(CC(=O)O)CCN(CC(=O)O)CCN(CC(=O)O)CC1)C(C)C)C(=O)N[C@@H](CCC(=O)O)C(=O)N1CCC[C@H]1C(=O)N[C@@H](CC(=O)O)C(=O)N[C@H](C(=O)N[C@@H](CO)C(=O)N[C@@H](CCC(N)=O)C(=O)N[C@H](C(=O)N[C@@H](CCC(N)=O)C(=O)N[C@@H](CC(=O)O)C(=O)N1CCC[C@H]1C(=O)N[C@@H](CC(N)=O)C(=O)N[C@@H](CC(=O)O)C(=O)N[C@@H](CCC(N)=O)C(=O)N[C@@H](Cc1ccc(O)cc1)C(=O)N[C@@H](CCC(=O)O)C(=O)N1CCC[C@H]1C(=O)N[C@@H](Cc1ccccc1)C(=O)O)C(C)C)C(C)C [copper-64 labelled]	–	C57BL/6 mice, male, tumour-free, pancreas	1 h	1.84 ± 0.8 %ID/g
[2H]C([2H])([18F])[C@]([2H])(N)C(=O)O	PET	athymic nude mice, U-87 MG, tumor	dose not given, 15 min post-injection	2.85 ± 0.39 %ID/cc
CC[C@H](C)[C@H](NC(=O)[C@@H](Cc1c[nH]c2ccccc12)NC(=O)[C@@H]1CCCN1C(=O)[C@H](CCCCN)NC(=O)[C@H](CCCCN)NC(=O)CCNC(=O)CCNC(=O)CN1CCN(CC(=O)O)CCN(CC(=O)O)CCN(CC(=O)O)CC1)C(=O)N[C@@H](C[Si](C)(C)C)C(=O)O [gallium-68 labelled]	ex vivo biodistribution	nude mice, HT-29 xenograft, muscle	90 min, with: levocabastine 0.5 µmol	0.44 ± 0.42 %ID/g
CC[C@H](C)[C@H](NC(=O)[C@H](CCCNC(=N)N)NC(=O)[C@H](CCCCN)NC(=O)[C@H](Cc1ccc(O)cc1)NC(=O)[C@H](CC(=O)O)NC(=O)[C@H](C)NC(=O)CNC(=O)CCOCCOCCOCCNC(=O)CN1CCN(CC(=O)O)CCN(CC(=O)O)CCN(CC(=O)O)CC1)C(=O)N[C@H](C(=O)N[C@H](C(=O)N[C@@H](CCCCN)C(=O)N[C@H](C(=O)N[C@@H](CC(N)=O)C(N)=O)C(C)C)C(C)C)[C@@H](C)O [copper-64 labelled]	ex vivo gamma counting	C57BL/6J male mice, B16-F10 tumour, blood	intravenous, 1.85 MBq, 5 min	8.77 ± 0.573 %ID/g
CCCC[C@H]1C(=O)N(C)[C@@H](CCCC)C(=O)N[C@@H](CCCNC(=O)CN2CCN(CC(=O)O)CCN(CC(=O)O)CCN(CC(=O)O)CC2)C(=O)N[C@H](C(=O)NCC(N)=O)CSCC(=O)N[C@@H](Cc2ccc(O)cc2)C(=O)N(C)[C@@H](C)C(=O)N[C@@H](CC(N)=O)C(=O)N2CCC[C@H]2C(=O)N[C@@H](Cc2c[nH]cn2)C(=O)N[C@@H](CC(C)C)C(=O)N(C)CC(=O)N[C@@H](Cc2c[nH]c3ccccc23)C(=O)N[C@@H](CO)C(=O)N[C@@H](Cc2c[nH]c3ccccc23)C(=O)N1C [gallium-68 labelled]	–	NOD/SCID mice with CHO-hPD-L1 xenograft, heart	120 min post injection	2.57 ± 1.32 %ID/g
CSCC[C@H](NC(=O)CNC(=O)[C@H](CCCCN)NC(=O)[C@H](CC(C)C)NC(=O)[C@@H]1CCCN1C(=O)[C@H](CO)NC(=O)[C@H](Cc1c[nH]cn1)NC(=O)[C@H](Cc1c[nH]c2ccccc12)NC(=O)[C@H](CCCNC(=N)N)NC(=O)[C@H](CC(C)C)NC(=O)[C@H](CCCNC(=N)N)NC(=O)[C@H](Cc1c[nH]c2ccccc12)NC(=O)[C@H](CS)NC(=O)CCCCCNC(=O)CN1CCN(CC(=O)O)CCN(CC(=O)O)CCN(CC(=O)O)CC1)C(=O)O [copper-64 labelled]	ex vivo biodistribution	male C57BL/6J mice, kidney	intravenous, 1.85 MBq, 2 h, B16-F10 tumour-bearing	39.9 %ID/g
